Measurements pooled from the literature.
Each line is one published result; not all experiments were run side by side. Numbers after ± are the reported error. Values after ≈ are worked out from the molar mass of the structure shown.

For `Br.Br.O=c1c(O)cccn1CCN1CCN(CCn2cccc(O)c2=O)CC1`, the log K110 was 7.5 (Fe(III); complex formation).
Under “IC50 ratio range”, `C=C(NC(=O)C(=C)NC(=O)c1csc(C2=NC3c4csc(n4)C4NC(=O)c5csc(n5)C(C(C)(O)C(C)O)NC(=O)C5CSC(=N5)C(=CC)NC(=O)C(C(C)O)NC(=O)c5csc(n5)C3(CC2)NC(=O)C(=C)NC(=O)C(=C)NC(=O)C(C)NC(=O)C(C(C)CC)NC2C=Cc3c(C(C)O)cc(nc3C2O)C(=O)OC4C)n1)C(N)=O` (stereo not shown) is recorded as no more than 5 fold (20S proteasome; three proteolytic activities; baseline: compound over thiostrepton A).
With `CC[C@H](C)[C@@H]1NC(=O)[C@H](Cc2ccc(O)cc2)NC(=O)[C@@H](N)CSSC[C@@H](C(=O)N2CCC[C@H]2C(=O)N2CCC[C@H]2C(=O)NCC(N)=O)NC(=O)[C@H](CC(N)=O)NC(=O)[C@H](CCC(N)=O)NC1=O` the Emax was 1740 RFU (oxytocin receptor (Callithrix jacchus); Ca2+ mobilisation, agonist; CHO cells).
The remaining activity of `O=C1c2ccccc2N(Cc2ccc(F)cc2)C12CCCC2` is reported as 75.5 ± 3.71% (acetylcholinesterase; 10 µM).
`Cc1c(-c2cccc(C3=NCCN3)c2)oc(-c2cccc(C3=NCCN3)c2)c1C` has a remaining ΔTm of 100% (F21T G-quadruplex DNA; FRET melting competition; 1 µM, together with: calf thymus DNA, G4:CT 1:10; baseline: without competitor).
For `NC[C@@H]1O[C@H](O[C@H]2[C@@H](O)[C@H](O[C@@H]3[C@@H](O)[C@H](N)C[C@H](N)[C@H]3O[C@H]3O[C@H](CO)[C@@H](OCC(O)CO)[C@H](O)[C@H]3N)O[C@@H]2CO)[C@H](N)[C@@H](O)[C@@H]1O` (stereo partly shown), the IC50 was 31.8 ± 14.2 µg/mL (≈ 46.2 µM) (ribosome with mitochondrial A site; luciferase translation, cell-free translation).
`O=C1C=CC(=O)C(c2cc(Cl)ccc2Cl)=C1`: pLAT level “increased” (SHP-1 (human); Western blot; Jurkat; concentration not given, 10 min).
`CO[C@H]1[C@H](O)[C@@H](N)[C@@H](O[C@H]2[C@H](O[C@@H]3O[C@H](CO)[C@@H](O[C@H]4O[C@@H](CN)[C@@H](O)[C@H](O)[C@H]4N)[C@H]3O)[C@@H](O)[C@H](N)C[C@@H]2N)O[C@@H]1CO` has an IC50 of 14.2 ± 6.74 µg/mL (≈ 22.6 µM) (Mycobacterium smegmatis ribosome A1408G; translation, cell-free luciferase synthesis).
For `O=C1c2ccccc2N(Cc2cccc(Br)c2)C12CCCC2`, the remaining activity was 68.6 ± 2.92% (acetylcholinesterase; 10 µM).
`COCOC[C@H]1O[C@H](O[C@H]2[C@H](O[C@@H]3O[C@H](CO)[C@@H](O[C@H]4O[C@@H](CN)[C@@H](O)[C@H](O)[C@H]4N)[C@H]3O)[C@@H](O)[C@H](N)C[C@@H]2N)[C@H](N)[C@@H](O)[C@@H]1OCOC` has an IC50 of greater than 700 µg/mL (ribosome with mitochondrial A1555G A site; luciferase translation, cell-free translation).
For `CC[C@H](C)[C@H](NC(=O)[C@H](Cc1ccccc1)NC(=O)[C@H](CCC(=O)O)NC(=O)[C@H](CCCCNC(=O)COCC(=O)NCCCOCCOCCOCCCNC(=O)CNC(=O)[C@@H]1CCCN1C(=O)CNC(=O)[C@@H]1CCCN1C(=O)CNC(=O)[C@@H]1CCCN1C(=O)[C@H](CCCCNC(=O)CN(CCN(CCN(CC(=O)O)CC(=O)O)CC(=O)O)CC(=O)O)NC(=O)COCC(=O)NCCCOCCOCCOCCCNC(=O)COCC(=O)NCCOc1ccc(Cl)cc1C(=O)NCCc1ccc(S(=O)(=O)NC(=O)NC2CCCCC2)cc1)NC(=O)[C@H](C)NC(=O)[C@H](C)NC(=O)[C@H](CCC(N)=O)NC(=O)CNC(=O)[C@H](CCC(=O)O)NC(=O)[C@H](CC(C)C)NC(=O)[C@H](Cc1ccc(O)cc1)NC(=O)[C@H](CO)NC(=O)[C@H](CO)NC(=O)[C@@H](NC(=O)[C@H](CC(=O)O)NC(=O)[C@H](CO)NC(=O)[C@@H](NC(=O)[C@H](Cc1ccccc1)NC(=O)[C@@H](NC(=O)CNC(=O)[C@H](CCC(=O)O)NC(=O)[C@H](C)NC(=O)[C@@H](N)Cc1c[nH]cn1)[C@@H](C)O)[C@@H](C)O)C(C)C)C(=O)N[C@@H](C)C(=O)N[C@@H](Cc1c[nH]c2ccccc12)C(=O)N[C@@H](CC(C)C)C(=O)N[C@H](C(=O)N[C@@H](CCCNC(=N)N)C(=O)NCC(=O)N[C@@H](CCCNC(=N)N)C(=O)NCC(N)=O)C(C)C`, the affinity shift was roughly 3 fold (GLP-1R and SUR1; saturation binding, time-resolved fluorescence; βTC3; baseline: bivalent over best monovalent element).
The IC50 of `CCCCCO[C@H]1[C@H](O)[C@@H](N)[C@@H](O[C@H]2[C@H](O[C@@H]3O[C@H](CO)[C@@H](O[C@H]4O[C@@H](CN)[C@@H](O)[C@H](O)[C@H]4N)[C@H]3O)[C@@H](O)[C@H](N)C[C@@H]2N)O[C@@H]1CO` is reported as 81.1 ± 8.77 µg/mL (≈ 118 µM) (ribosome with mitochondrial A1555G A site; luciferase translation, cell-free translation).
For `C[C@H]1CN(Cc2ccc(C(F)(F)F)cc2N2C3CCC2CN(CC(=O)O)C3)CCN1C(=O)n1ccc(S(=O)(=O)N(C)C)n1`, the EC50 was 29 nM (human N-Ras; N-Ras palmitoylation).
With `NC[C@@H]1O[C@H](O[C@H]2[C@@H](O)[C@H](O[C@@H]3[C@@H](O)[C@H](N)C[C@H](N)[C@H]3O[C@H]3O[C@H](CO)[C@@H](OCCCO)[C@H](O)[C@H]3N)O[C@@H]2CO)[C@H](N)[C@@H](O)[C@@H]1O` the IC50 was 38.1 ± 5.73 µg/mL (≈ 56.6 µM) (Mycobacterium smegmatis ribosome A1408G; translation, cell-free luciferase synthesis).
`c1ccc(CCNC2CCCc3c2[nH]c2ccc(C4CCCCC4)cc32)cc1` (stereo not shown) — result for “lipid II amidation”: “no effect” (MurT/GatD complex, Staphylococcus aureus).
The cross-reactivity of `CC[C@@H]1CN2CCc3c([nH]c4cccc(OC)c34)[C@H]2C[C@@H]1/C(=C\OC)C(=O)OC` is reported as 8.18% (rabbit anti-mitragynine polyclonal IgG; competitive indirect ELISA; concentration not given; baseline: mitragynine).
`CCCCO[C@H]1[C@H](O)[C@@H](N)[C@@H](O[C@H]2[C@H](O[C@@H]3O[C@H](CO)[C@@H](O[C@H]4O[C@@H](CN)[C@@H](O)[C@H](O)[C@H]4N)[C@H]3O)[C@@H](O)[C@H](N)C[C@@H]2N)O[C@@H]1CO` gave an IC50 of 150 ± 38.6 µg/mL (≈ 223 µM) (ribosome with mitochondrial A site; luciferase translation, cell-free translation).
`CCC(C(=O)OC)C1N=C(c2ccc(Cl)cc2)c2cc(OC)ccc2-n2c(C)nnc21` (stereo not shown) gave a delta Tm of less than 3 °C (human BET bromodomains wild type; differential scanning fluorimetry).
`COc1ccc(F)cc1S(=O)(=O)Nc1cnc2c(c1)C(=O)NCCO2` — result for “mean ALP inhibition”: “increased” (alkaline phosphatase; inhibitor; cynomolgus monkey, plasma; oral, dose not given, up to 8 h; baseline: vehicle).
With `N#Cc1ccc(CN2c3ccccc3C(=O)C23CCCC3)cc1` the remaining activity was 54.6 ± 5.23% (acetylcholinesterase; 10 µM).
`CC1OCC2OC(OC3C(N)CC(N)C(O)C3OC3OC(CO)C(OC4OC(CN)C(O)C(O)C4N)C3O)C(N)C(O)C2O1` (stereo not shown) has an IC50 of 98 ± 39.7 µg/mL (≈ 153 µM) (ribosome with mitochondrial A1555G A site; luciferase translation, cell-free translation).
`CCCCCCCCC(=O)NCc1ccc(O)c(OC)c1` gave an IC50 of 0.637 µg/mL (≈ 2.17 µM) (mAb 6-AT6; antibody binding, indirect competitive ELISA; together with: coating antigen 5-OVA).
With `CCCCCCCC/C=C\CCCCCCCC(=O)Oc1cccc(SSC[C@H](N)C(=O)N[C@@H](Cc2ccc(O)cc2)C(=O)NCC(=O)N[C@@H](C)C(=O)N[C@@H](CCCCN)C(N)=O)c1` the inhibition was roughly 40% (calpain, rabbit; enzyme activity; rabbit renal proximal tubule cells; 100 µM, 24 h).
`CCO[C@H]1[C@H](O)[C@@H](N)[C@@H](O[C@H]2[C@H](O[C@@H]3O[C@H](CO)[C@@H](O[C@H]4O[C@@H](CN)[C@@H](O)[C@H](O)[C@H]4N)[C@H]3O)[C@@H](O)[C@H](N)C[C@@H]2N)O[C@@H]1CO` has an IC50 ratio of 100 (Mycobacterium smegmatis ribosome A1408G; translation, cell-free translation; baseline: A1408G mutant over wild type).
The EC50 of `CC(C)C[C@H](NC(=O)[C@H](Cc1ccccc1)NC(=O)CNC(=O)CNC(=O)[C@@H](N)Cc1ccc(O)cc1)C(=O)O` is reported as 1800 nM (delta opioid receptor (Rana pipiens)).
